Results gathered from unrelated publications.
Compare with care: the assays were run in different laboratories. Values joined by “and” are separate records of one study, mostly repeats; a detail may differ.
Organism: Staphylococcus aureus

CCCO[C@H]1[C@H](O)[C@@H](N)[C@@H](O[C@H]2[C@H](O[C@@H]3O[C@H](CO)[C@@H](O[C@H]4O[C@@H](CN)[C@@H](O)[C@H](O)[C@H]4N)[C@H]3O)[C@@H](O)[C@H](N)C[C@@H]2N)O[C@@H]1CO
MIC (broth microdilution; MRSA isolate AG 045): 8 µg/mL

CC(C)[C@H](NC(=O)[C@H](CCCCN)NC(=O)[C@H](CCCNC(=N)N)NC(=O)[C@@H](NC(=O)[C@H](C)NC(=O)[C@H](CC(N)=O)NC(=O)[C@H](CCCNC(=N)N)NC(=O)[C@@H](NC(=O)[C@H](CCCCN)NC(=O)[C@H](CCCCN)NC(=O)[C@@H](NC(=O)[C@@H](NC(=O)[C@H](CCCNC(=N)N)NC(=O)[C@H](CCCNC(=N)N)NC(=O)[C@H](Cc1c[nH]c2ccccc12)NC(=O)[C@H](Cc1c[nH]c2ccccc12)NC(=O)CN)[C@@H](C)O)C(C)C)C(C)C)C(C)C)C(=O)O
MIC (bacterial growth; ATCC 25923; 18 h): 32 µg/mL

COc1cc(/C=N/N2C(=O)c3ccccc3NC2c2ccc(O)c(OC)c2)ccc1O (centres unmarked)
MIC (microbial growth, broth dilution; MRSA; 24 h, drug-resistant strain, clinical isolate): > 256 µg/mL

CC(C)C[C@H](NC(=O)[C@H](CC(C)C)NC(=O)[C@H](C)NC(=O)[C@H](NC(=O)[C@H](CO)NC(=O)[C@@H](CCCCN)NC(=O)[C@@H](CC(C)C)NC(=O)[C@@H](N)Cc1ccccc1)[C@@H](O)C(N)=O)C(=O)O
MIC (MRSA ATCC 700698; TFA salt): > 32 µg/mL

O=C(O)c1ccc(-n2cc(/C=N/Nc3cccc(Cl)c3F)c(-c3ccc4ccccc4c3)n2)cc1
MIC (microbial growth; ATCC700699; drug-resistant strain): 0.78 µg/mL

CC[C@@H](C)[C@H]1NC(=O)[C@H]([C@@H](C)CC)NC(=O)[C@@H](CCCN)NC(=O)[C@@H](NC(=O)[C@@H](NC(=O)[C@@H](CCC(=O)O)NC(=O)[C@H](CC(C)C)NC(=O)[C@@H]2CSC([C@@H](N)[C@@H](C)CC)=N2)[C@@H](C)CC)CCCCNC(=O)[C@H](CC(N)=O)NC(=O)[C@@H](CC(=O)O)NC(=O)[C@H](Cc2c[nH]cn2)NC1=O
MIC (USA300 MRSA; 18 h, 37 °C, with: ZnSO4 0.3 mM): 4 µg/mL

CC[C@H](C)[C@@H]1NC(=O)[C@@H]([C@@H](C)O)NC(=O)CNC(=O)[C@H](CC(=O)O)NC(=O)CNC(=O)[C@H](CC(=O)O)NC(=O)[C@H](CC(=O)O)NC(=O)[C@H]2CCCCN2C(=O)[C@@H](NC(=O)[C@H](CC(=O)O)NC(=O)/C=C/CCCCCCCCCC(C)C)CNC(=O)[C@@H]2CCCN2C1=O
MIC (MRSA USA300; 16 h, 37 °C, with: Ca2+ 10 mM): 16 µg/mL

CC[C@H](C)[C@H](NC(=O)[C@@H](Cc1ccccc1)NC)C(=O)N[C@@H](CO)C(=O)N[C@H](CCC(N)=O)C(=O)N[C@@H](C(=O)N[C@H](C(=O)N[C@@H](CO)C(=O)N[C@H]1C(=O)N[C@@H](C)C(=O)N[C@@H](C2CCCCC2)C(=O)N[C@@H]([C@@H](C)CC)C(=O)O[C@H]1C)[C@@H](C)CC)[C@@H](C)CC
MIC (broth microdilution; ATCC 700698, MRSA, brain heart infusion broth; 16 h, 37 °C): 1 µg/mL

CC(CCCOC(=O)CCC[N+](C)(C)C)C1CCC2C3C(OC(=O)CCC[N+](C)(C)C)CC4CC(OC(=O)CCC[N+](C)(C)C)CCC4(C)C3CC(OC(=O)CCC[N+](C)(C)C)C12C (centres unmarked)
MIC (microbial growth; ATCCBAA44 MRSA; drug-resistant strain): 312 µg/mL

CC(C)C[C@@H]1NC(=O)[C@H](C)NC(=O)[C@H](NC(=O)[C@H](C)NC(=O)[C@@H](CCCCN)NC(=O)[C@@H](CC(C)C)NC(=O)[C@@H](N)Cc2ccccc2)[C@H](C(N)=O)OC(=O)[C@H](CC(C)C)NC1=O
MIC (MSSA ATCC 29213; TFA salt): 8 µg/mL

CN1C(=O)[C@@H]2NC(=O)[C@@H]3NC(=O)[C@@H](c4ccc(O)cc4)NC(=O)[C@H](NC(=O)C(NC(=O)CCCCCN)c4ccc(O)cc4)Cc4c[nH]c5cc(ccc45)-c4cc3cc(c4O)Oc3ccc(cc3)C[C@H]1C(=O)N[C@@H](C(=O)O)c1ccc(O)c(c1)Oc1ccc2cc1 (some centres unmarked)
MIC (ATCC 33591 MRSA, Mueller-Hinton broth): 8 to 16 µg/mL

CCCCc1ccc(N2C(=O)/C(=N\NC(=N)N)c3cc(OC)ccc32)cc1
MIC (broth microdilution; BAA41 MRSA; 18 h, 37 °C): 6 µg/mL

CC(C)=CCc1cc2c(cc1O)OC[C@H]1c3ccc(O)c(CC=C(C)C)c3O[C@@H]21
MIC: 4 µg/mL

CC(C)C[C@H](NC(=O)[C@H](CC(C)C)NC(=O)[C@H](CCCCN)NC(=O)CNC(=O)[C@H](CC(C)C)NC(=O)[C@H](CC(C)C)NC(=O)[C@H](CO)NC(=O)[C@H](CC(C)C)NC(=O)[C@H](CC(C)C)NC(=O)[C@H](CO)NC(=O)[C@H](CC(C)C)NC(=O)[C@H](CC(C)C)NC(=O)CN)C(N)=O
MIC (broth microdilution; USA300 MRSA): 3.12 µM and 3.1 µM

C[C@@H](N)[C@H](O)CCCCCCCC(=O)CCCCCCCCCCCCCC[C@@H](O[C@@H]1O[C@H](CO)[C@@H](O)[C@H](O)[C@H]1O)[C@@H](N)CO
MIC (microbial growth, resazurin; ATCC12600; 6 h): 11.8 µM

NCCCC[C@H](NC(=O)[C@H](CCCCN)NC(=O)[C@H](Cc1ccccc1)NC(=O)[C@@H]1CCCN1C(=O)[C@H](Cc1c[nH]c2ccccc12)NC(=O)[C@H](Cc1c[nH]c2ccccc12)NC(=O)[C@H](Cc1c[nH]c2ccccc12)NC(=O)[C@@H]1CCCN1C(=O)[C@H](Cc1ccccc1)NC(=O)[C@H](CCCCN)NC(=O)[C@@H](N)CCCCN)C(N)=O
MIC (MSSA RN 4220, RPMI medium; 24 h, 37 °C): 15 µM

CC(=O)OCc1cc(-c2nc3ccccc3n(-c3ccc([N+](=O)[O-])cc3[N+](=O)[O-])c2=O)nn1-c1ccccc1
MIC (microbial growth; ATCC25923): > 500 µg/mL

COc1ccc2ccc3c(c2c1)C=[N+]1C2CCCCC2[N+]2=Cc4cc(C(C)(C)C)cc(C(C)(C)C)c4[O][Au-]21[O]3.F[P-](F)(F)(F)(F)F (centres unmarked)
MIC (bacterial growth, broth microdilution; vancomycin-intermediate; 24 h): 10 µM

CC[C@H](C)[C@H](NC(=O)[C@H](CCCCN)NC(=O)[C@H](CC(N)=O)NC(=O)[C@H](Cc1c[nH]c2ccccc12)NC(=O)[C@H](Cc1ccccc1)NC(=O)[C@H](CCCCN)NC(=O)[C@H](CCCCNC(=N)N)NC(=O)[C@H](CC(C)C)NC(=O)[C@H](Cc1c[nH]c2ccccc12)NC(=O)[C@H](CCCCN)NC(=O)[C@H](CCCCNC(=N)N)NC(=O)[C@H](CC(C)C)NC(=O)CNC(C)=O)C(=O)N[C@@H](CCCCN)C(=O)N[C@@H](CCCCNC(=N)N)C(N)=O
MIC (12 h, with: plasma pretreatment): 6.25 µM

CC1=C[C@@H](C)[C@H]2[C@@H]3C(=O)C(Cl)(Cl)C(=O)[C@H](C)C(=O)O[C@@H](C)/C=C/C=C\[C@@H](C)[C@@H]3C=C[C@@H]2C1
MIC (microbial growth, broth dilution; MRSA; drug-resistant strain): 0.05 µg/mL

CC[S+]([O-])C1C(CO)OC(OC2C(N)CC(N)C(O)C2OC2OC(CO)C(OC3OC(CN)C(O)C(O)C3N)C2O)C(N)C1O (mixture of isomers)
MIC (methicillin-resistant, AAC(6') ANT(4',4'') APH(3')): 64 to 128 µg/mL

CN1CCNC1=S.CN1CCNC1=S.O=[N+]([O-])[O-].[Ag+].c1ccc(P(c2ccccc2)c2ccccc2)cc1
MIC (agar dilution; methicillin-resistant; 24 h, 37 °C): 7 µg/mL

CC(C)C[C@@H]1NC(=O)[C@@H](CC(C)C)NC(=O)[C@H](CCN)NC(=O)[C@@H](NC(=O)[C@H](CCN)NC(=O)[C@@H](NC(=O)CCCCn2cc(C[C@H](NC(=O)CC[C@@H]3NC(=O)[C@H](CCN)NC(=O)[C@H](Cc4ccc(O)cc4)NC(=O)[C@H]([C@@H](C)O)NC(=O)[C@H](C(C)C)NC(=O)[C@@H]4CCCN4C(=O)[C@@H](C)NC(=O)[C@H](CO)NC(=O)[C@H](C)NC(=O)[C@H](C(C)(C)C)NC(=O)[C@H](CCO)NC(=O)[C@H](Cc4c[nH]c5ccccc45)NC(=O)[C@H](CCO)NC(=O)[C@@H](CCN)NC3=O)C(N)=O)nn2)[C@@H](C)O)CCNC(=O)[C@H]([C@@H](C)O)NC(=O)[C@H](CCN)NC(=O)[C@H](CCN)NC1=O
MIC (broth microdilution; MRSA USA300, CAMHB with polysorbate-80; 16 h): > 64 µg/mL

Excerpt of the above:
COc1ccc2ccc3c(c2c1)C=[N+]1C2CCCCC2[N+]2=Cc4cc(C(C)(C)C)cc(C(C)(C)C)c4[O][Au-]21[O]3.F[P-](F)(F)(F)(F)F (centres unmarked)
MIC (bacterial growth, broth microdilution; vancomycin-intermediate; 24 h): 10 µM

CC[C@H](C)[C@H](NC(=O)[C@H](CCCCN)NC(=O)[C@H](CC(N)=O)NC(=O)[C@H](Cc1c[nH]c2ccccc12)NC(=O)[C@H](Cc1ccccc1)NC(=O)[C@H](CCCCN)NC(=O)[C@H](CCCCNC(=N)N)NC(=O)[C@H](CC(C)C)NC(=O)[C@H](Cc1c[nH]c2ccccc12)NC(=O)[C@H](CCCCN)NC(=O)[C@H](CCCCNC(=N)N)NC(=O)[C@H](CC(C)C)NC(=O)CNC(C)=O)C(=O)N[C@@H](CCCCN)C(=O)N[C@@H](CCCCNC(=N)N)C(N)=O
MIC (12 h, with: plasma pretreatment): 6.25 µM

CC1=C[C@@H](C)[C@H]2[C@@H]3C(=O)C(Cl)(Cl)C(=O)[C@H](C)C(=O)O[C@@H](C)/C=C/C=C\[C@@H](C)[C@@H]3C=C[C@@H]2C1
MIC (microbial growth, broth dilution; MRSA; drug-resistant strain): 0.05 µg/mL
